Assay results gathered from unrelated publications.
Lines come from different studies, so protocols differ.

SMILES | assay | test system | conditions | half-life [h]
O=c1[nH]c(Cc2ccccn2)nc2c1cnn2C1CCOCC1 | – | male human, plasma | oral, 50 mg, single dose | 1.34
O[C@H]1CCCN[C@@H]1CCCn1cnc2c(Cl)c(Cl)ccc21 | – | healthy human volunteers, plasma | oral, 100 mg, day 1, multiple ascending dose | 3.81
CC(C)C[C@H](NC(=O)[C@H](Cc1cccc2ccccc12)NC(=O)[C@H](CNC(=O)c1ccc(F)nc1)NC(=O)[C@H](CO)NC(=O)C1CCNCC1)C(=O)N[C@@H](CS)C(=O)N1CCC[C@H]1C(=O)N[C@H](C(N)=O)[C@@H](C)O | chemical stability | male human, serum | 1 mM, pH 7.4 | < 0.5
COc1ccc(C[C@@H]2NC(=O)[C@H]([C@@H](C)O)NC(=O)[C@@H]3[C@@H]4CCN3C(=O)[C@@H]3Cc5cn(c6ccc(F)cc56)CCCCCCN(Cc5ccc(cc5)CCNC(=O)[C@]5(C)CCCN5C2=O)C(=O)CCC(=O)N[C@@H](C)C(=O)N[C@H](CNC(=O)CCCCC[N+](C)(C)C)C(=O)N[C@@H](Cc2cccc(c2)CNC(=O)CO4)C(=O)N3)cc1 | – | healthy fasted humans, plasma | oral, 200 mg single dose, geometric mean, added: Labrasol 1800 mg | 95.5
CC(C)C[C@H](NC(=O)[C@H](Cc1cccc2ccccc12)NC(=O)[C@H](CNC(=O)c1ccc(F)nc1)NC(=O)[C@H](CO)NC(=O)C1CCNCC1)C(=O)N[C@@H](CC(N)=O)C(=O)N1CCC[C@H]1C(=O)N[C@H](C(N)=O)[C@@H](C)O | chemical stability | male human, serum | 1 mM, pH 7.4 | > 24
CC[C@H](C)[C@H](NC(=O)[C@H](CCCNC(=N)N)NC(=O)[C@H](CC(C)C)NC(=O)[C@@H](N)Cc1ccccc1)C(=O)N[C@@H](CCCNC(=N)N)C(=O)N1CCC[C@H]1C(=O)N[C@H](CCCCN)C(=O)O | – | rat plasma | 37 °C | 0.7
CCCCCOc1ccc(-c2cc(-c3ccc(C(=O)N[C@H]4C[C@@H](O)[C@@H](O)NC(=O)[C@@H]5[C@@H](O)[C@@H](C)CN5C(=O)[C@H]([C@H](O)CC(N)=O)NC(=O)[C@H]([C@H](O)[C@@H](O)c5ccc(O)c(OS(=O)(=O)O)c5)NC(=O)[C@@H]5C[C@@H](O)CN5C(=O)[C@H]([C@@H](C)O)NC4=O)cc3)no2)cc1 | – | infants, plasma | intravenous, 7 and 10 mg/kg/day, day 4, median | 10.6
CCCCCCCCCCCCCCCC(=O)NCCCC[C@H](NC(=O)[C@H](CCC(=O)O)NC(=O)[C@H](CCC(=O)O)NC(=O)[C@H](Cc1ccc(O)cc1)NC(=O)[C@H](CCC(=O)O)NC(=O)CCCCCNC(=S)Nc1ccc2c(c1)C(=O)OC21c2ccc(O)cc2Oc2cc(O)ccc21)C(=O)N[C@@H](Cc1ccc(O)cc1)C(=O)N[C@@H](CCC(=O)O)C(=O)NCC(=O)NCC(=O)NCC(=O)NCC(=O)N[C@@H](CO)C(=O)NCC(=O)NCC(=O)NCC(=O)NCC(=O)N[C@@H](CO)C(=O)N[C@@H](Cc1ccccc1)C(=O)N[C@@H](CC(N)=O)C(=O)N1CCC[C@H]1C(=O)N[C@@H](CCCNC(=N)N)C(=O)N[C@@H](Cc1c[nH]cn1)C(=O)NC(C)(C)C(=O)N[C@@H](CCC(=O)O)C(=O)NCC(=O)N[C@H](C(=O)N[C@@H](Cc1ccccc1)C(=O)N[C@H](C(=O)N[C@@H](CO)C(=O)N[C@@H](CC(=O)O)C(=O)N[C@H](C(=O)N[C@@H](CO)C(=O)N[C@@H](CO)C(=O)N[C@@H](Cc1ccc(O)cc1)C(=O)N[C@@H](CC(C)C)C(=O)N[C@@H](CCC(=O)O)C(=O)NCC(=O)N[C@@H](CCC(N)=O)C(=O)N[C@@H](C)C(=O)N[C@@H](C)C(=O)N[C@@H](CCCCN)C(=O)N[C@@H](CCC(=O)O)C(=O)N[C@@H](Cc1ccccc1)C(=O)N[C@H](C(=O)N[C@@H](C)C(=O)N[C@@H](Cc1c[nH]c2ccccc12)C(=O)N[C@@H](CC(C)C)C(=O)N[C@H](C(=O)N[C@@H](CCCCN)C(=O)NCC(=O)N[C@@H](CCCNC(=N)N)C(=O)NCC(=O)O)C(C)C)[C@@H](C)CC)C(C)C)[C@@H](C)O)[C@@H](C)O | item: released GLP-1 analogue | rhesus monkey, plasma | subcutaneous, 30 nmol/kg | 90.9

Some of these lines once more:
SMILES | assay | test system | conditions | half-life [h]
COc1ccc(C[C@@H]2NC(=O)[C@H]([C@@H](C)O)NC(=O)[C@@H]3[C@@H]4CCN3C(=O)[C@@H]3Cc5cn(c6ccc(F)cc56)CCCCCCN(Cc5ccc(cc5)CCNC(=O)[C@]5(C)CCCN5C2=O)C(=O)CCC(=O)N[C@@H](C)C(=O)N[C@H](CNC(=O)CCCCC[N+](C)(C)C)C(=O)N[C@@H](Cc2cccc(c2)CNC(=O)CO4)C(=O)N3)cc1 | – | healthy fasted humans, plasma | oral, 200 mg single dose, geometric mean, added: Labrasol 1800 mg | 95.5
